Published values from different studies.
Each line is one published result; not all experiments were run side by side. Numbers after ± are the reported error.

The EC50 of `CN1C(=O)N[C@H](Cc2c[nH]c3c(Cl)cccc23)C1=O` is reported as 94 nM (FADD-knockout Jurkat; necroptosis protection; 16 h, together with: TNFα 40 ng/mL).
`COc1cc(CNC(=O)C[C@H](C)CCC=C(C)C)ccc1OCc1cn(-c2ccc(C#N)cc2)nn1` gave a growth percent of 72.8% (ACHN; SRB; 10 µM, 48 h).
`COc1cc2c(OC3OCC(OC)C(OC)C3OC(=O)c3ccc(Br)cc3)c3c(c(-c4ccc5c(c4)OCO5)c2cc1OC)C(=O)OC3` (centres unmarked): “Bax/Bcl-2 mRNA ratio” “increased” (CAL-27; qRT-PCR; concentration not given, 72 h).
`Brc1ccc(Nc2nc(NN=Cc3c[nH]c4ccccc34)nc(N3CCOCC3)n2)cc1` — result for protein level: “decreased” (SK-BR-3; Western blot, refers to: HER2, AKT, RAF-1, CDK4, CDK6; concentration not given, 12 h).
With `COc1cc2c(cc1OC)CN(c1cccc(-c3nc4ccc(N5CCN(C)CC5)cc4[nH]3)c1)CC2` the EC50 was 1440 nM (HT-22; protection from ferroptosis, CCK-8 viability; 24 h, together with: 1 µM erastin).
With `COc1cc(CNC(=O)C[C@H](C)CCC=C(C)C)ccc1OCc1cn(-c2ccccc2Cl)nn1` the growth percent was 81% (Hs-578T breast cancer cells; SRB; 10 µM, 48 h).
`CC(=O)OC[C@H]1O[C@@H](Sc2sc(C(=O)c3ccc(Br)cc3)c(N)c2-c2nc3ccccc3s2)[C@H](OC(C)=O)[C@@H](OC(C)=O)[C@H]1OC(C)=O` gave a growth of 105% (OVCAR-5; SRB; 10 µM, 48 h; reference: untreated).
With `COc1cc(CNC(=O)C[C@H](C)CCC=C(C)C)ccc1OCc1cn(-c2ccccc2)nn1` the growth percent was 97.2% (MDA-MB-435 melanoma cells; SRB; 10 µM, 48 h).
For `O=c1[nH]c(N2CCC3(CC2)CN(CCO)c2cc(F)cc(F)c23)nc2c1CCCC2`, mRNA level read “decreased” (COLO 320DM; qRT-PCR, refers to: AXIN2 and MYC; concentration not given, 48 h).
For `CCOC(=O)c1nc2cc(Cl)c(Cl)cc2nc1N1CCN(C(=O)Nc2ccc(N3CCNCC3)cc2)CC1`, “NRF2 target gene mRNA level” read “increased” (RAW264.7; qRT-PCR; concentration not given, with or without LPS; reference: vehicle).
`COc1ccc(S(=O)(=O)N2CCc3ccccc3C2)cc1N1CCN(C(=O)c2ccc(F)cc2C(F)(F)F)CC1` — result for “TH-positive neuron count”: 362 ± 23.9 (mouse midbrain dopamine neurons; 3.5 µM, 5 days).
`COc1c(OCCCCN2CCCC2)cc(O)c2c(=O)cc(-c3ccccc3)oc12` has a combination index of 13.4 (KBM5-T315I; CCK-8; 12 h, together with: ponatinib).
With `CC(=O)O[C@@H]1CC[C@@]2(C)C(CC[C@]3(C)C2C(=O)C=C2C4[C@@H](C)[C@H](C)CC[C@]4(C)CC[C@]23C)[C@@]1(C)C(=O)OCc1cn(CC(=O)OC2CC(C)CCC2C(C)C)nn1` (some centres unmarked) the inhibition was 88.3% (RAW264.7; NO release, inhibitor, Griess; 10 µM, 24 h, LPS-stimulated).
The viability of `CC(C)Cc1ccc(C(C)C(=O)NN=Cc2ccc(OCC(=O)NN=Cc3cccc([N+](=O)[O-])c3)cc2)cc1` (centres unmarked) is reported as 59.1% (U87 MG; MTT; 150 µM, 48 h).
`Cc1ncsc1-c1ccc([C@H](C)NC(=O)[C@@H]2C[C@@H](O)CN2C(=O)[C@@H](NC(=O)[C@H]2C[C@H](C(=O)N3CCC(c4cc(Nc5cc(C#N)ccn5)nc(N5CCC(F)(F)C5)c4)CC3)C2)C(C)(C)C)cc1` gave an effective concentration of 500 nM (HNSCC cell lines; cell viability, colony formation).
`CC(=O)N[C@H](C(=O)N[C@H](C(=O)N[C@@H](CCCNC(=N)N)C(=O)N1Cc2ccccc2C[C@H]1C(=O)N[C@@H](Cc1ccccc1)C(N)=O)C1CCCCC1)C(C)C` gave a cytokine level of 6.5 ± 2.4 pg/mL (MBP-specific BC-3 T cells; Bio-Plex multiplex, refers to: IL-10; 200 µg/mL, 24 h, together with: MBP87-99 antigen).
`COc1cccc(/C=N/NC(=O)COc2ccc(/C=N/NC(=O)C(C)c3ccc(CC(C)C)cc3)cc2)c1O` (centres unmarked) gave a viability of 22.1% (U87 MG; MTT; 150 µM, 48 h).
For `COc1cc(CNC(=O)C[C@H](C)CCC=C(C)C)ccc1OCc1cn(-c2cccc(C(F)(F)F)c2)nn1`, the growth percent was 92.1% (EKVX; SRB; 10 µM, 48 h).
`Cc1ccc(Nc2ncc3c(n2)N(C2CCCCC2)C(=O)N(c2cc(NC(=O)c4cccc(C(F)(F)F)c4)ccc2C)C3)cn1` has a GI50 of 1540 nM (Hep3B; cell growth or viability, ATP luminescence; 72 h).
`O=Cc1c(O)ccc2ccccc12`: “log2 fold change” 3.81 (HUVEC; RNA sequencing, refers to: FAM129A; 75 µM, 24 h; reference: DMSO).
With `Cc1cc(Nc2ccc(NC(=O)c3ccc(NC(=O)c4ccncc4)cc3)cc2)nc(N)n1` the reporter reactivation was 1 ± 0.1 fold (KG-1 with methylated CMV-luciferase; luciferase reporter gene; 0.1 µM, 24 h; reference: untreated).
`COc1cc(CNC(=O)C[C@H](C)CCC=C(C)C)ccc1OCc1cn(-c2ccc([N+](=O)[O-])cc2)nn1` gave a growth percent of 88.2% (MDA-MB-435 melanoma cells; SRB; 10 µM, 48 h).
With `CC(C)C(=O)Cc1c(OCC(O)C(C)(C)O)ccc2ccc(=O)oc12` (centres unmarked) the combination index was 0.76 (COLO 320 (ABCB1-overexpressing, multidrug-resistant); cell growth; 200 µM starting, CI at ED50, together with: doxorubicin, ratio 46.4:1).
For `CO[C@H]1N(OC)c2ccccc2[C@@]12CN=C(Nc1cc(C(F)(F)F)cc(C(F)(F)F)c1)S2` (relative stereo), “sub-G1 phase cells” read 55.1 ± 14.1% (HCT-116; PI flow cytometry; 40 µM, 72 h).
For `C[C@H](NC(=O)CNC(=O)[C@H](CCC(=O)O)NC(=O)[C@H](CCC(=O)O)NC(=O)[C@H](CC(=O)O)NC(=O)[C@@H]1CCCN1C(=O)[C@H](Cc1ccccc1)NC(=O)[C@H](CS)NC(=O)[C@H](Cc1ccc(O)cc1)NC(=O)CCCNC(=O)CNC(=O)CNC(=O)[C@@H](C)NC(=O)CN)C(=O)N[C@@H](CS)C(=O)N[C@@H](Cc1ccc(O)cc1)C(N)=O` [technetium-99m labelled], the internalization was 15.3 ± 0.2% (SK-BR-3; 8 h, 37 °C).
`CC1(C)OC(=O)C[C@H](O)[C@]2(C)[C@H]3CC[C@@]4(C)[C@H](c5ccoc5)OC(=O)[C@H]5O[C@]54[C@]3(C)C(=O)C[C@@H]12` gave a combination index of 0.67 (COLO 320 (ABCB1-overexpressing, multidrug-resistant); cell growth; 200 µM starting, CI at ED50, together with: doxorubicin, ratio 92.8:1).
The effective concentration of `O=C(NCCc1cccc(F)c1)[C@@H]1C[C@@H](Sc2nc3ccccc3[nH]2)CN1Cc1cccc(Cl)c1` is reported as 2000 to 16000 nM (MGC-803; cell invasion, inhibitor).
With `COc1cc(CN2CCN(c3cccc(Cl)c3)CC2)c2cc3[n+](cc2c1O)CCc1cc2c(cc1-3)OCO2` the therapeutic index was 36.3 (HeLa and MDCK; SRB; 48 h; reference: CC50 MDCK over IC50 HeLa).
`COc1cc(CNC(=O)C[C@H](C)CCC=C(C)C)ccc1OCc1cn(-c2ccccc2F)nn1` has a growth percent of 65.3% (ACHN; SRB; 10 µM, 48 h).
`N[C@@H](CSC(F)(F)[18F])C(=O)O` gave a protein incorporation of 4.5% (C6; concentration not given, 120 min).
`Cc1ccc(CN2C(=O)/C(=N\c3ccc(Cl)cc3Br)c3ccccc32)cc1` gave an inhibition of 60.8% (B16; cell growth or viability; 0.4 µM).
`COc1ccc(NC(=O)COc2ccc(/C=C/C(C)=N/O)cc2OC)cc1`: “ROS positive cells” 18.8% (SH-SY5Y; DCFDA flow cytometry; 20 µM, together with: amyloid beta 10 µM).
With `COc1cc(CNC(=O)C[C@H](C)CCC=C(C)C)ccc1OCc1cn(-c2ccccc2[N+](=O)[O-])nn1` the growth percent was 74.9% (MDA-MB-435 melanoma cells; SRB; 10 µM, 48 h).
`CCCC[C@H](NC(=O)[C@H](Cc1ccccc1)NC(=O)[C@H](Cc1c[nH]cn1)NC(=O)CCNC(=O)[C@@H](NC(=O)[C@H](C)NC(=O)[C@H](Cc1c[nH]c2ccccc12)NC(=O)[C@H](CCC(N)=O)NC(=O)[C@H](N)Cc1ccc(O)cc1)C(C)C)C(N)=O`: “phosphorylation fold increase” 10.2 fold (NCI-H1299 transfected with NMB receptor; Western blot, refers to: EGFR tyrosine phosphorylation; 100 nM; reference: untreated).
With `CC(C)Cc1ccc(C(C)C(=O)N/N=C/c2ccc(OCC(=O)N/N=C/c3ccc([N+](=O)[O-])cc3)cc2)cc1` (centres unmarked) the viability was 77.4% (U87 MG; MTT; 80 µM, 48 h).
The EC50 of `COC[C@@H](C)N[C@H]1CC[C@H](Nc2cc(-c3cccc(NCC4(C#N)CCOCC4)n3)c(Cl)cn2)CC1` is reported as ~7.1 nM (primary human tonsillar lymphocytes; cytotoxicity; 72 h).
`COc1cc(CNC(=O)C[C@H](C)CCC=C(C)C)ccc1OCc1cn(-c2ccc(F)cc2)nn1` has a growth percent of 67.9% (T47D breast cancer cells; SRB; 10 µM, 48 h).
`CN1CCN(C(=O)N(CCCCCCC(=O)NO)c2ccc(-c3ccc4cnn(C)c4c3)cc2)CC1` — result for sub-G1 cells: “increased” (MM1.S and RPMI-8226; propidium iodide flow cytometry; concentration not given, 24 h).

For quick reference, copied from above:
`COc1cc(CNC(=O)C[C@H](C)CCC=C(C)C)ccc1OCc1cn(-c2ccccc2F)nn1` has a growth percent of 65.3% (ACHN; SRB; 10 µM, 48 h).
`N[C@@H](CSC(F)(F)[18F])C(=O)O` gave a protein incorporation of 4.5% (C6; concentration not given, 120 min).
`Cc1ccc(CN2C(=O)/C(=N\c3ccc(Cl)cc3Br)c3ccccc32)cc1` gave an inhibition of 60.8% (B16; cell growth or viability; 0.4 µM).
`COc1ccc(NC(=O)COc2ccc(/C=C/C(C)=N/O)cc2OC)cc1`: “ROS positive cells” 18.8% (SH-SY5Y; DCFDA flow cytometry; 20 µM, together with: amyloid beta 10 µM).
With `COc1cc(CNC(=O)C[C@H](C)CCC=C(C)C)ccc1OCc1cn(-c2ccccc2[N+](=O)[O-])nn1` the growth percent was 74.9% (MDA-MB-435 melanoma cells; SRB; 10 µM, 48 h).
`CCCC[C@H](NC(=O)[C@H](Cc1ccccc1)NC(=O)[C@H](Cc1c[nH]cn1)NC(=O)CCNC(=O)[C@@H](NC(=O)[C@H](C)NC(=O)[C@H](Cc1c[nH]c2ccccc12)NC(=O)[C@H](CCC(N)=O)NC(=O)[C@H](N)Cc1ccc(O)cc1)C(C)C)C(N)=O`: “phosphorylation fold increase” 10.2 fold (NCI-H1299 transfected with NMB receptor; Western blot, refers to: EGFR tyrosine phosphorylation; 100 nM; reference: untreated).
